Measurements collected from several papers.
Each line is one published result; not all experiments were run side by side. ± gives the spread as reported.

SMILES	test	test system	conditions	quantity	result
CCCCCCCC(=O)C(=O)C(O)CO (stereo not shown)				log membrane partition coefficient	3.55
O=C1c2ccccc2NC(c2ccc(O)c(O)c2)N1/N=C/c1ccc(O)c(O)c1 (stereo not shown)	RP-HPLC			log k	-0.66
COC(=O)CN1CCN(CC(=O)OC)CCN(Cc2cc(-c3nc4ccccc4s3)cc(OC)c2O)CC1		octanol/water	64Cu complex	log D	0.72 ± 0.02
COC(=O)c1ccccc1-c1c2ccc(=O)cc-2oc2cc(OCCCCC[P+](c3ccccc3)(c3ccccc3)c3ccccc3)ccc12	shake-flask, HPLC	1-octanol/water		log P	0.42 ± 0.04
COc1cc(OC)cc(C2=C3C(C)=C(I)C(C)=[N+]3[B-](F)(F)n3c(/C=C/c4c[nH]c5ccc([N+](=O)[O-])cc45)c(I)c(C)c32)c1		DMSO		log molar absorptivity	4.46 M⁻¹ cm⁻¹
Oc1cccc(-c2cccc(O)n2)n1.[Cl-].[Cl-].[Ru+2].c1cnc2c(c1)c1c(c3cccnc32)OCCO1.c1cnc2c(c1)c1c(c3cccnc32)OCCO1		octanol/buffer	monoprotic acid form	log D	1.5
COC(=O)CCC(=O)[O][Pt-2]1([Cl])([Cl])([O]C)[NH2+]CC[N+]1(C)C	RP-HPLC, C18 column	methanol/aqueous formic acid	25 °C, extrapolated to 100% water	log kw	1.58 ± 0.02
c1ccc(COc2cc3nc(c2)CNCCNCCNC3)cc1	pH-potentiometric titration		protonation constant, I 0.15 M NaCl, 298 K	log K2	7.76
C[N+]1(C)CC[NH2+][Pt-2]1([OH])([Cl])([Cl])[O]C(=O)CCC(=O)O	RP-HPLC, C18 column	methanol/aqueous formic acid	25 °C, extrapolated to 100% water	log kw	0.46 ± 0.03
CCOC(=O)c1[nH]c(C)c(/C=C/c2c(I)c(C)c3n2[B-](F)(F)[N+]2=C(C)C(I)=C(C)C2=C3c2cc(OC)cc(OC)c2)c1C		THF		log molar absorptivity	4.9 M⁻¹ cm⁻¹
FC(F)(F)c1ccnc(-c2cc(C(F)(F)F)ccn2)c1.FC(F)(F)c1ccnc(-c2cc(C(F)(F)F)ccn2)c1.[Cl-].[Cl-].[Ru+2].c1csc(-c2nc3c4cccnc4c4ncccc4c3[nH]2)c1	shake-flask	1-octanol/phosphate buffer	pH 7.4, chloride salt	log D octanol/water	negative
Oc1ccc2nc1CNCCNCCNC2	pH-potentiometric titration		protonation constant, I 0.15 M NaCl, 298 K	log K1	11.2
O=c1c(O)cccn1CCCN1CCN(CCCn2cccc(O)c2=O)CC1	spectrophotometric titration		25 °C, ligand protonation, ionic strength 0.10 M	log Ka2	-5.91 ± 0.09
C[N+]1(C)CC[NH2+][Pt-2]1([OH])([Cl])([Cl])[O]C(=O)CCC(=O)OCCO	RP-HPLC, C18 column	methanol/aqueous formic acid	25 °C, extrapolated to 100% water	log kw	0.3 ± 0.06
CCNC(=O)C1OC(n2cnc3c(NCC(C)C)nc(NCCNC(=O)Nc4cc[n+](C)cc4)nc32)C(O)C1O (stereo not shown)	IAM chromatography		pH 7.4	log kIAM	2.21
COc1cc(OC)cc(C2=C3C(C)=C(I)C(C)=[N+]3[B-](F)(F)n3c(/C=C/c4cccs4)c(I)c(C)c32)c1		DMSO		log molar absorptivity	4.61 M⁻¹ cm⁻¹
COc1ccc(NC(=O)[C@H](CCCCN)NC(=O)c2cc(NC(=O)[C@H](CCCCN)NC(=O)c3cc(NC(=O)[C@H](CCCCN)NC(=O)c4cc(NC(=O)[C@@H](N)CCCCN)ccc4OC)ccc3OC)ccc2OC)cc1C(=O)NCCC(=O)O	UV-vis λmax shift	TBS	pH 7.4, monomer-hexamer, K in M^-5	log association constant	21.8
Br.Br.O=c1c(O)cccn1CCN1CCN(CCn2cccc(O)c2=O)CC1	spectrophotometric titration		25 °C, Ka3, ionic strength 0.10 M	log proton dissociation constant	-7.5 ± 0.08
NCC(=O)N1CCC[C@H]1C(=O)N1C[C@H](O)C[C@H]1C(=O)O	potentiometric titration		37 °C, MAH-3 complex, with: Fe(III)	log beta	0.36
COCCOCCOCCOc1ccc(/C=C/c2c(I)c(C)c3n2[B-](F)(F)[N+]2=C(C)C(I)=C(C)C2=C3c2cc(OC)cc(OC)c2)cc1		dichloromethane		log molar absorptivity	4.77 M⁻¹ cm⁻¹
Br.Br.Br.O=c1c(O)cccn1CCN1CCN(CCn2cccc(O)c2=O)CCN(CCn2cccc(O)c2=O)CC1	spectrophotometric titration		25 °C, Ka3, ionic strength 0.10 M	log proton dissociation constant	-7.5 ± 0.02
CC(C)CC(=O)C(=O)C(O)CO (stereo not shown)				log membrane partition coefficient	1.91

SMILES	test	test system	conditions	quantity	result
O=C(O)CN(CCNC(=O)c1cccc(C(=O)NCCN(CC(=O)O)CC(=O)O)n1)CC(=O)O	potentiometric titration	water, 0.1 M KNO3	25.0 °C, species HL	log K (stepwise protonation)	10.3
CCNC(=O)C1OC(n2cnc3c(NCC(c4ccccc4)c4ccccc4)nc(C(=O)NCCNC(=O)NC4CCN(c5ccccn5)CC4)nc32)C(O)C1O (stereo not shown)	IAM chromatography		pH 7.4	log kIAM	2.38
COc1cc2oc(-c3ccc(C(F)(F)F)cc3)cc(=O)c2c(O)c1O	spectrophotometric titration	methanol-water	pH 7.4, 25.0 °C, with: Fe(III)-NTA	log stability constant	4.4
O=C1c2ccccc2NC(c2ccc([N+](=O)[O-])cc2)N1/N=C/c1ccc([N+](=O)[O-])cc1 (stereo not shown)	RP-HPLC			log k	0.704
Oc1cc2nc(c1)CNCc1cc(O)cc(n1)CNC2	potentiometric titration	0.15 M NaCl	298 K, protonation constant	log K1	11.3
COc1cc2oc(-c3ccc(F)cc3)cc(=O)c2c(O)c1O	spectrophotometric titration	methanol-water	pH 7.4, 25.0 °C, with: Fe(III)-NTA	log stability constant	5
NC(=O)CN1CCNC(=O)c2cccc(n2)C(=O)NCCN(CC(N)=O)CCN(CC(N)=O)CC1	potentiometric titration	water, 0.1 M KNO3	25.0 °C, complex species LPb(OH), with: Pb(NO3)2	log β (Pb2+ complex stability)	15.4
COc1cc(OC)cc(C2=C3C(C)=C(I)C(/C=C/c4c[nH]c5ccc([N+](=O)[O-])cc45)=[N+]3[B-](F)(F)n3c(/C=C/c4c[nH]c5ccc([N+](=O)[O-])cc45)c(I)c(C)c32)c1		THF		log molar absorptivity	4.79 M⁻¹ cm⁻¹
O=C(/C=C/c1ccc(O)c(O)c1)NCCCCCCCC[P+](c1ccccc1)(c1ccccc1)c1ccccc1	spectrophotometry	sodium deoxycholate micelles	37 °C	log Kd	1.79 ± 0.56
COc1cc2oc(-c3ccccc3)cc(=O)c2c(O)c1O	spectrophotometric titration	methanol/water 80/20 w/w	25.0 °C, ionic strength 0.1 M, 6-OH group	log protonation constant	9.75
CCNC(=O)C1OC(n2cnc3c(NCC(C)C)nc(NCCNC(=O)Nc4ccncc4)nc32)C(O)C1O (stereo not shown)	IAM chromatography		pH 7.4	log kIAM	1.86
COc1cc(OC)cc(C2=C3C(C)=C(I)C(/C=C/c4c[nH]c5ccccc45)=[N+]3[B-](F)(F)n3c(/C=C/c4c[nH]c5ccccc45)c(I)c(C)c32)c1		dichloromethane		log molar absorptivity	4.54 M⁻¹ cm⁻¹
Oc1cccc(-c2cccc(O)n2)n1.[Cl-].[Cl-].[Ru+2].c1cnc2c(c1)ccc1cccnc12.c1cnc2c(c1)ccc1cccnc12		octanol/buffer	monoprotic acid form	log D	1.3
COc1ccc(NC(=O)[C@H](CCCCN)NC(=O)c2cc(NC(=O)[C@H](CCCCN)NC(=O)c3cc(NC(=O)[C@H](CCCCN)NC(=O)c4cc(NC(=O)[C@@H](N)CCCCN)ccc4OC)ccc3OC)ccc2OC)cc1C(N)=O	UV-vis λmax shift	Tris 50 mM	pH 7.4, monomer-hexamer global fit, with: NaCl 0.15 M	log association constant	19.7
COc1cc(OC)cc(C2=C3C(C)=C(I)C(C)=[N+]3[B-](F)(F)n3c(/C=C/c4c[nH]c5ccccc45)c(I)c(C)c32)c1		dichloromethane		log molar absorptivity	4.64 M⁻¹ cm⁻¹
OCC1OC(n2cnc3c(NCC(c4ccccc4)c4ccccc4)ncnc32)C(O)C1O (stereo not shown)	IAM chromatography		pH 7.4	log kIAM	2.31
Cc1cccc(-c2cccc(C)n2)n1.Cc1cccc(-c2cccc(C)n2)n1.[Cl-].[Cl-].[Ru+2].c1ccc(-c2ccnc3c2ccc2c(-c4ccccc4)ccnc23)cc1	shake flask	n-octanol/water	dark	log P	-1.27 ± 0.03
COc1cc(-c2nc3ccccc3s2)cc(CN2CCN(CC(=O)OC(C)(C)C)CCN(CC(=O)OC(C)(C)C)CC2)c1O		octanol/water	64Cu complex	log D	0.95 ± 0.07
CCOC(=O)c1[nH]c(C)c(/C=C/C2=[N+]3C(=C(c4cc(OC)cc(OC)c4)c4c(C)c(I)c(/C=C/c5c(C)[nH]c(C(=O)OCC)c5C)n4[B-]3(F)F)C(C)=C2I)c1C		dichloromethane		log molar absorptivity	4.86 M⁻¹ cm⁻¹
[CH3][Pd-2]([Cl])([N+](=Cc1ccc[nH]1)Cc1ccccc1)[N+](=Cc1ccc[nH]1)Cc1ccccc1	shake-flask	n-octanol/water		log P	1.395 ± 0.0065
C[N+]1(C)CC[NH2+][Pt-2]1([OH])([Cl])([Cl])[O]C(=O)CCC(=O)OCCOC(=O)CCC(=O)[O][Pt-2]1([OH])([Cl])([Cl])[NH2+]CC[N+]1(C)C	RP-HPLC, C18 column	methanol/aqueous formic acid	25 °C, extrapolated to 100% water	log kw	1.98 ± 0.07

Excerpt of the above:
SMILES	test	test system	conditions	quantity	result
O=C1c2ccccc2NC(c2ccc([N+](=O)[O-])cc2)N1/N=C/c1ccc([N+](=O)[O-])cc1 (stereo not shown)	RP-HPLC			log k	0.704
Oc1cc2nc(c1)CNCc1cc(O)cc(n1)CNC2	potentiometric titration	0.15 M NaCl	298 K, protonation constant	log K1	11.3
COc1cc2oc(-c3ccc(F)cc3)cc(=O)c2c(O)c1O	spectrophotometric titration	methanol-water	pH 7.4, 25.0 °C, with: Fe(III)-NTA	log stability constant	5
NC(=O)CN1CCNC(=O)c2cccc(n2)C(=O)NCCN(CC(N)=O)CCN(CC(N)=O)CC1	potentiometric titration	water, 0.1 M KNO3	25.0 °C, complex species LPb(OH), with: Pb(NO3)2	log β (Pb2+ complex stability)	15.4
COc1cc(OC)cc(C2=C3C(C)=C(I)C(/C=C/c4c[nH]c5ccc([N+](=O)[O-])cc45)=[N+]3[B-](F)(F)n3c(/C=C/c4c[nH]c5ccc([N+](=O)[O-])cc45)c(I)c(C)c32)c1		THF		log molar absorptivity	4.79 M⁻¹ cm⁻¹
O=C(/C=C/c1ccc(O)c(O)c1)NCCCCCCCC[P+](c1ccccc1)(c1ccccc1)c1ccccc1	spectrophotometry	sodium deoxycholate micelles	37 °C	log Kd	1.79 ± 0.56
